Published values collected from several papers.
Compare with care: the assays were run in different laboratories. Several values in a cell are separate wells, animals, samples, runs or records. ± gives the spread as reported.

Compound | tested on | assay | test system | conditions | how to read | quantity | value
Cc1cc(O)c2c(c1)C(=O)c1cccc(O)c1C2=O | HK-2 co-cultured with HepaRG | MTT |  | 33.33 µM, 24 h | baseline: untreated control | viability | 95 ± 8.55%
Cc1nc(Nc2ncc(C(=O)Nc3c(C)cccc3Cl)s2)cc(N2CC[C@H](O)C2)n1 | NAMALWA CSN/70 | cell proliferation, CellTiter-Glo |  | 10 µM, 72 h |  | inhibition | 36%
CC(C)C[C@H](NC(=O)C[C@H](O)[C@H](CC(C)C)NC(=O)[C@H](Cc1c[nH]cn1)NC(=O)CNC(=O)[C@@H](NC(=O)[C@H](C)NC(=O)[C@H](Cc1c[nH]c2ccccc12)NC(=O)[C@H](CCC(N)=O)NC(=O)[C@@H](Cc1ccccc1)NC(=O)COCCOCCNC(=O)CN1CCN(CC(=O)O)CCN(CC(=O)O)CCN(CC(=O)O)CC1)C(C)C)C(N)=O [lutetium-177 labelled] |  |  | female BALB/c nu/nu mice, lung | intravenous, 50 pmol, 24 h |  | tissue uptake | 0.024 ± 0.008 %ID/g
CCOC(=O)c1nn(-c2ccccc2)c(C#N)c1NC(=O)c1ccn(CC)n1 | human monocytes | phagocytosis of anti-D RBCs |  | 5 µM, lab-synthesized sample |  | inhibition | 1.1 ± 1.7%
C/C1=C\CC[C@]23O[C@H]2[C@@H](OC3=O)c2c(C)coc2C1 | THP-1 | pyroptotic LDH release |  | 2 µM, 40 min, added: LPS then nigericin |  | inhibition | -7.26%
CC(C)[C@H](NC(=O)[C@H](Cc1ccc(O)cc1)NC(=O)[C@H](Cc1ccc(O)cc1)NC(=O)[C@@H]1CCCN1C(=O)[C@H](CCC(=O)O)NC(=O)[C@H](CCC(=O)O)NC(=O)[C@H](Cc1c[nH]c2ccccc12)NC(=O)[C@@H]1CCCN1C(=O)[C@@H](NC(=O)[C@H](CCC(N)=O)NC(=O)c1ccc2c(c1)C(=O)OC21c2ccc(O)cc2Oc2cc(O)ccc21)C(C)C)C(=O)N[C@H](C(=O)N[C@@H](CCCCN)C(=O)N[C@@H](CCCCN)C(=O)N[C@@H](CO)C(=O)N[C@@H](CO)C(=O)NCC(=O)NCC(N)=O)C(C)C |  | measured: total compound | human, plasma | intravenous infusion, 100 mg, 30 min |  | plasma concentration | 5110 ng/mL
COc1cc(O)c2c(c1)C(=O)c1cc(C)cc(O)c1C2=O | HK-2 co-cultured with HepaRG | MTT |  | 16.67 µM, 24 h | baseline: untreated control | viability | 110 ± 11.2%
Nc1cc(O)nc(N)n1 | THP-1 | pyroptotic LDH release |  | 2 µM, 40 min, added: LPS then nigericin |  | inhibition | -10.9%
CC(=O)OC[C@H]1O[C@@H]([S-])[C@H](OC(C)=O)[C@@H](OC(C)=O)[C@@H]1OC(C)=O.CCP(CC)CC.[Au+] | HUVEC | tube branching nodes, tube formation |  | IC10, 16 h | baseline: untreated | inhibition | 35%
CCOC(=O)c1nn(-c2ccccc2)c(C#N)c1NC(=O)c1nn(CC)cc1Br | human monocytes | phagocytosis of anti-D RBCs |  | 5 µM, lab-synthesized sample |  | inhibition | 41 ± 6.3%
Cc1cc(N2CCc3c(c(C)nn3CC34CCC(NC(=O)[C@@H]5COCCN5)(CC3)CC4)C2)c2cnn(C)c2n1 | human PBMC | qRT-PCR, measured: RSAD2 mRNA |  | 100 nM, added: ssRNA |  | inhibition | 98 ± 1%
CCOC(=O)c1nn(-c2ccccc2)c(C#N)c1NC(=O)c1nn(CC)cc1C | human monocytes | phagocytosis of anti-D RBCs |  | 5 µM, lab-synthesized sample |  | inhibition | 30 ± 6.7%
Cc1[nH]c(/C=C2\C(=O)Nc3ccc(S(=O)(=O)N(C)c4cccc(Cl)c4)cc32)c(C)c1C(=O)N1CCN(C)CC1 | THP-1 | pyroptotic LDH release |  | 2 µM, 40 min, added: LPS then nigericin |  | inhibition | -2.82%
Cc1nn(-c2nc3c(F)cc(F)cc3s2)c(O)c1C(c1ccc(C(F)(F)F)cc1)c1c(C)nn(-c2nc3c(F)cc(F)cc3s2)c1O | RAW-ISG | IFN luciferase reporter |  | 2.5 µM, added: HT-DNA |  | inhibition | 49% and 50.5% and 43.4% and 45.5% and 50.1% and 46%

For quick reference, copied from above:
Compound | tested on | assay | test system | conditions | how to read | quantity | value
Cc1[nH]c(/C=C2\C(=O)Nc3ccc(S(=O)(=O)N(C)c4cccc(Cl)c4)cc32)c(C)c1C(=O)N1CCN(C)CC1 | THP-1 | pyroptotic LDH release |  | 2 µM, 40 min, added: LPS then nigericin |  | inhibition | -2.82%
